# Experimental data collected from several papers.
# Each line is one published result; not all experiments were run side by side.
# rep main protease: Replicase polyprotein 1ab, main protease (rep, Severe acute respiratory syndrome coronavirus 2, UniProt P0DTD1)
# rep papain-like protease: Replicase polyprotein 1ab, papain-like protease (rep, Severe acute respiratory syndrome coronavirus 2, UniProt P0DTD1)
Substance,target,test,test system,conditions,inhibition [%]
COc1cc(O)c2c(=O)c(OC)c(-c3ccc(OC)c(OC)c3)oc2c1,rep main protease,"enzyme activity, inhibitor",,100 µM,16.1
COc1c2c(cc(O)c1-c1oc3cc(O)ccc3c1CO)OC(C)(C)CC2,rep main protease,"enzyme activity, inhibitor",,concentration not given,13.6
COc1cc(OC)c2c(=O)c(OC)c(-c3ccccc3)oc2c1,rep main protease,"enzyme activity, inhibitor",,10 µM,-9.08
O=C(c1cc2ccc(O)cc2[nH]1)N1CC2(C1)CN(C(=O)[C@H]1CCc3n[nH]nc3C1)CCO2,rep main protease,"enzyme activity, inhibitor",,"5 µM, run 2",11.9
C[C@@H]1O[C@@H](c2c(O)c([C@@H]3O[C@H](CO)[C@@H](O)[C@H](O)[C@H]3O)c3oc(-c4ccc(O)cc4)cc(=O)c3c2O)[C@H](O)[C@H](O)[C@H]1O,rep main protease,"enzyme activity, inhibitor",,concentration not given,37.8
O=C(NC[C@@H]1C[C@H]2CC[C@@H]1N(C(=O)c1ccc3n[nH]nc3n1)C2)[C@@H]1CCc2n[nH]c(=O)n2C1,rep main protease,"enzyme activity, inhibitor",,"5 µM, mean of runs",13.4
Cc1nc(-c2ccccc2F)c(C(=O)NC(Cc2ccccc2)C(=O)C(N)=O)o1 (stereo not shown),rep main protease,"reporter gene (mKate2), inhibitor",,20 µM,-0.553
Cc1nn(C)c2ncc(C(=O)N3CC4(CCOCC4)C[C@H]3CNC(=O)c3cccnc3)cc12,rep main protease,"enzyme activity, inhibitor",,"5 µM, run 1",9.1
CC(C)C[C@H](NC(=O)[C@H](Cc1ccccc1)NC(=O)c1cnccn1)B1O[C@@H]2C[C@@H]3C[C@@H](C3(C)C)[C@]2(C)O1,rep main protease,"viral replication, mKate2 reporter",SARS-CoV-2,20 µM,-0.816
COc1cc(O)c2c(c1)O[C@H](c1ccccc1)CC2=O,rep main protease,"enzyme activity, inhibitor",,10 µM,1.28
O=C1C[C@@H](c2ccc(O[C@@H]3O[C@H](CO)[C@@H](O)[C@H](O)[C@H]3O)cc2)Oc2cc(O[C@@H]3O[C@H](CO)[C@@H](O)[C@H](O)[C@H]3O)ccc21,rep papain-like protease,"enzyme activity, inhibitor",,concentration not given,42.8
O=c1c2ccccc2[se]n1-c1ccccc1,rep main protease,"enzyme activity, inhibitor",,40 µM,104
CC1=C2CC(C(=O)N[C@@H]3CN(C(=O)c4cc5ccccc5o4)Cc4nccn4C3)=CN=C2NN1,rep main protease,"Mpro enzyme activity, inhibitor",,"5 µM, high-throughput screen, mean of runs",11
C=C1[C@@H](C)[C@H]2[C@H](Cc3ccccc3)NC(=O)[C@]23[C@H](OC(C)=O)/C=C/[C@](C)(O)C[C@@H](C)C/C=C/[C@H]3[C@@H]1O,rep main protease,"reporter gene (mKate2), inhibitor",,20 µM,-0.644
Cc1cncc(CC(=O)N2CCC[C@@H]([C@@H]3CCN(C(=O)c4cnn(-c5ccccn5)c4)C3)C2)c1,rep main protease,"enzyme activity, inhibitor",,"5 µM, run 1",21.7
COc1cc2occ(-c3ccc(O)cc3O)c(=O)c2c(O)c1CC=C(C)C,rep papain-like protease,"enzyme activity, inhibitor",,concentration not given,54.3
Cc1nn(-c2ccc(Cl)cc2)c2c1C(c1ccc(Cl)cc1Cl)C(C#N)=C(N)O2 (stereo not shown),rep main protease,3CL protease activity,,"0.001 µg/mL, 90 min, enzyme 1 ng/mL",6.28
Cc1ccccc1C1(C(=O)NC[C@H](NC(=O)Cn2cncn2)c2ccc3ccccc3c2)CC1,rep main protease,"enzyme activity, inhibitor",,"5 µM, mean of runs",10.5
COc1cc(O)cc2c1[C@@H]1Oc3c(ccc4c3C=CC(C)(C)O4)[C@@H]1CO2,rep papain-like protease,"enzyme activity, inhibitor",,concentration not given,35
COc1ccc(-c2cc(=O)c3c(OC)cc(OC)cc3o2)cc1,rep main protease,"enzyme activity, inhibitor",,10 µM,-46.4
CC(C)=CCc1c(O)c(CC=C(C)C)c2oc3c(O)ccc(O)c3c(=O)c2c1O,rep main protease,"reporter gene (Gaussia luciferase), inhibitor",,20 µM,-3.25
Cc1cncc(CC(=O)N2CCC[C@H]([C@H]3CCN(C(=O)c4cnc5cc(C)ccc5c4)C3)C2)c1,rep main protease,"enzyme activity, inhibitor",,"5 µM, mean of runs",10.9
COc1ccc(-c2oc3cc(OC)cc(O)c3c(=O)c2OC)cc1,rep main protease,"enzyme activity, inhibitor",,10 µM,0.9
COc1cc2c(cc1OC)-c1c(C)c3ccc(OC)c(OC)c3c[n+]1CC2,rep main protease,"reporter gene (Gaussia luciferase), inhibitor",,20 µM,0.158
CC1(C)C=Cc2c(ccc(-c3coc4cc(O)cc(O)c4c3=O)c2O)O1,rep main protease,"enzyme activity, inhibitor",,concentration not given,14.8
voxilaprevir,rep main protease,"enzyme activity, mKate2 fluorescence reporter",SARS-CoV-2,20 µM,0.269
O=C(NC[C@H](NC(=O)c1cn[nH]c1-c1ccoc1)c1ccc2ccccc2c1)c1ccccc1,rep main protease,"enzyme activity, inhibitor",,"5 µM, mean of runs",13.5
daurisoline,rep main protease,"enzyme activity, mKate2 fluorescence reporter",SARS-CoV-2,20 µM,-0.577
COc1ccc(-c2oc3cc(OC)cc(OC)c3c(=O)c2OC)cc1,rep main protease,"enzyme activity, inhibitor",,10 µM,0.4
CN1CCc2nc(C(=O)N[C@@H]3C[C@@H](C(=O)N(C)C)CC[C@@H]3NC(=O)C(=O)Nc3ccc(Cl)cn3)sc2C1,rep main protease,"reporter gene (Gaussia luciferase), inhibitor",,20 µM,-0.425
CC1(C)C=Cc2c(O)ccc(-c3coc4cc(O)cc(O)c4c3=O)c2O1,rep main protease,"enzyme activity, inhibitor",,concentration not given,61.2

# Repeated from above:
Substance,target,test,test system,conditions,inhibition [%]
COc1c2c(cc(O)c1-c1oc3cc(O)ccc3c1CO)OC(C)(C)CC2,rep main protease,"enzyme activity, inhibitor",,concentration not given,13.6
COc1cc(OC)c2c(=O)c(OC)c(-c3ccccc3)oc2c1,rep main protease,"enzyme activity, inhibitor",,10 µM,-9.08
O=C(c1cc2ccc(O)cc2[nH]1)N1CC2(C1)CN(C(=O)[C@H]1CCc3n[nH]nc3C1)CCO2,rep main protease,"enzyme activity, inhibitor",,"5 µM, run 2",11.9
